Assay results from different studies.
Protocols differ between the studies behind these lines. Numbers after ± are the reported error.

C[C@H]1N=C(c2ccccc2F)c2cc(Br)ccc2-n2cnc(C(=O)O)c21 — Tmax (Swiss Webster mice, blood; oral gavage, 100 mg/kg): 20 min
Cc1nonc1Cn1nnc2c(N3CC[C@H](O)C3)nc(C(C)(C)C)nc21 — Tmax (C57BL/6 mice; oral, 2.8 mg/kg): 15 min
CCN(CC)CCCC[C@H](NC(=O)[C@H](CC(C)C)NC(=O)[C@H](C)NC(=O)[C@H](Cc1ccccc1)NC(=O)c1ccc(C(C)(C)C)cc1)C(=O)N[C@@H](CO)C(=O)OC — Tmax (Swiss albino mice, male, blood; intraperitoneal, 10 mg/kg): 120 min
C[C@H]1COCCN1c1nc(NCc2cccnc2C(F)(F)F)c2cccnc2n1 — Tmax (SCID BALB/c mice; oral, 90 mg/kg): 45 min
CN1CCN(S(=O)(=O)c2cc([N+](=O)[O-])ccc2N(CCOS(C)(=O)=O)CCOS(C)(=O)=O)CC1 — Tmax (naive female NSG mice, plasma; intraperitoneal, 5 mg/kg): 15 min
OCc1ncc2n1-c1ccc(Cl)cc1C(c1ccccc1F)=NC2 — Tmax (measured: 1'-hydroxymidazolam; wild-type mice, plasma; iv, 500 mg/kg, 3 days, together with: midazolam 0.3 mg/kg, phenobarbital, 10 mg/kg pregnenolone 16α-carbonitrile): 10 min
COC(=O)c1ccc2c(c1)NC(=O)/C2=C(\Nc1ccc(N(C)C(=O)CN2CCN(C)CC2)cc1)c1ccccc1 — maximum inhibition (human coronavirus OC43; virus-induced cell killing; MRC-5; maximum over 10 doses): 0%
C[C@H]1N=C(c2ccccc2F)c2cc(Br)ccc2-n2cnc(C(=O)O[C@@H]3O[C@H](C(=O)O)[C@@H](O)[C@H](O)[C@H]3O)c21 — Tmax (Swiss Webster mice, blood; oral gavage, 100 mg/kg): 30 min
OCC(CO)N[C@H]1C[C@](O)(CO)[C@@H](O)[C@H](O)[C@H]1O — maximum inhibition (human coronavirus OC43; virus-induced cell killing; MRC-5; screen): 14.7%
COc1cc(C)[nH]c(=O)c1CNC(=O)c1c(C)n([C@H](C)C2CCN(CC(F)(F)F)CC2)c2ccccc12 — Tmax (female CB17 SCID mice, HT-1376 xenograft, plasma; 75 mg/kg, day 1): 30 min
CC[C@H](C)[C@@H]1NC(=O)[C@@H]2CCCN2C(=O)[C@H](CC(C)C)NC(=O)[C@H](CC(C)C)NC(=O)CNC(=O)[C@@H](NC(=O)[C@@H](NC(=O)[C@H](CC(=O)O)NC(=O)CNC(=O)[C@@H](NC(=O)[C@H](C)NC(=O)CNC(=O)[C@H](CCCCN)NC(=O)[C@H](CC(C)C)NC(=O)[C@H](CC(C)C)NC(=O)[C@H](CCCCN)NC(=O)CNC(=O)[C@@H](NC(=O)[C@@H](N)CC(C)C)C(C)C)C(C)C)C(C)C)CSSC[C@@H](C(=O)O)NC1=O — Tmax (female C57BL/6 mice, plasma; intravenous, 10 mg/kg, two-compartment model): 13.8 ± 0.6 min
NC(=O)[C@@H]1CC(F)(F)CN1C(=O)c1ccc(N2CC(F)(F)C2)c(OCC2CC2)n1 — Tmax (C57BL/6 mice; oral, 2.8 mg/kg): 60 min
CCC[C@@](N)(CO)CCc1ccc(OCCCCCC(C)C)cc1 — Tmax (C57BL/6 mice; oral, 10 mg/kg): 60 min
